Published values gathered from unrelated publications.
Lines come from different studies, so protocols differ. Positions count from the first letter of the parent shown. ± marks the error that the study gave.
Ovol1: Ovol1 (Mus musculus, UniProt Q9WTJ2)
UniProt Q9WTJ2, sequence (whole entry, looked up): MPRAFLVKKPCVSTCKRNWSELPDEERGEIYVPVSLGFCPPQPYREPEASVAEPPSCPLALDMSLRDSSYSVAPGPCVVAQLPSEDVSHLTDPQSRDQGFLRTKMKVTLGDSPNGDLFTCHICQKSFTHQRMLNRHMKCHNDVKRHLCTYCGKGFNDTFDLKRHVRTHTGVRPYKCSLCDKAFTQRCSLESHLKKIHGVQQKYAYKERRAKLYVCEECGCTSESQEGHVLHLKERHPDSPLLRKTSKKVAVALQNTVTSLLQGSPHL
WRKY45-1: WRKY45-1 104-182 (Oryza sativa, UniProt Q5W6D6)
UniProt Q5W6D6, sequence (whole entry, looked up): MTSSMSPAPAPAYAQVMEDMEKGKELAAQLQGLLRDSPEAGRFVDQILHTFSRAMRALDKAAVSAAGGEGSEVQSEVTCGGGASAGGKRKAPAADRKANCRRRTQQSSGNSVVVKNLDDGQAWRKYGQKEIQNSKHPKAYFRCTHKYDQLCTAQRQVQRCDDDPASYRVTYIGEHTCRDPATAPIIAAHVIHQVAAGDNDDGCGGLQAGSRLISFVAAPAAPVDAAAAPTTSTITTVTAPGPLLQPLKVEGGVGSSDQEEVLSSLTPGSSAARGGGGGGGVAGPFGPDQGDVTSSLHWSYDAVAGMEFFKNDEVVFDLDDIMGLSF
Heat shock factor protein HSF8: Heat shock factor protein HSF8 (Solanum lycopersicum, UniProt Q40152)
UniProt Q40152, sequence (whole entry, looked up): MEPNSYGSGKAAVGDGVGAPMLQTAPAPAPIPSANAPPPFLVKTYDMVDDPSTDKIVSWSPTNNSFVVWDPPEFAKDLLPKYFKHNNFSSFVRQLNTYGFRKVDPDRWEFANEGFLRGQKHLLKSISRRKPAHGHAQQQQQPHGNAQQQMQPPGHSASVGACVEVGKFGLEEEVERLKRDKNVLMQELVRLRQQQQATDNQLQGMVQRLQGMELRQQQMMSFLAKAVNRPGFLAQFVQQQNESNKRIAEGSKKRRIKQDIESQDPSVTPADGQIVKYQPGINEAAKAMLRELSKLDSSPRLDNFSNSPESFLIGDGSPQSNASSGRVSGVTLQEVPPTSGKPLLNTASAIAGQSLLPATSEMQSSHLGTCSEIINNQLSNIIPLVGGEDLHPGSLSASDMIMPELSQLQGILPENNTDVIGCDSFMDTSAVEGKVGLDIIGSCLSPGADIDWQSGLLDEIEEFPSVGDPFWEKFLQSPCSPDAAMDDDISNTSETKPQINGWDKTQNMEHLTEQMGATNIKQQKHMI
bin: bin 311-408 (Drosophila melanogaster, UniProt Q9VS05)
UniProt Q9VS05, sequence (whole entry, looked up): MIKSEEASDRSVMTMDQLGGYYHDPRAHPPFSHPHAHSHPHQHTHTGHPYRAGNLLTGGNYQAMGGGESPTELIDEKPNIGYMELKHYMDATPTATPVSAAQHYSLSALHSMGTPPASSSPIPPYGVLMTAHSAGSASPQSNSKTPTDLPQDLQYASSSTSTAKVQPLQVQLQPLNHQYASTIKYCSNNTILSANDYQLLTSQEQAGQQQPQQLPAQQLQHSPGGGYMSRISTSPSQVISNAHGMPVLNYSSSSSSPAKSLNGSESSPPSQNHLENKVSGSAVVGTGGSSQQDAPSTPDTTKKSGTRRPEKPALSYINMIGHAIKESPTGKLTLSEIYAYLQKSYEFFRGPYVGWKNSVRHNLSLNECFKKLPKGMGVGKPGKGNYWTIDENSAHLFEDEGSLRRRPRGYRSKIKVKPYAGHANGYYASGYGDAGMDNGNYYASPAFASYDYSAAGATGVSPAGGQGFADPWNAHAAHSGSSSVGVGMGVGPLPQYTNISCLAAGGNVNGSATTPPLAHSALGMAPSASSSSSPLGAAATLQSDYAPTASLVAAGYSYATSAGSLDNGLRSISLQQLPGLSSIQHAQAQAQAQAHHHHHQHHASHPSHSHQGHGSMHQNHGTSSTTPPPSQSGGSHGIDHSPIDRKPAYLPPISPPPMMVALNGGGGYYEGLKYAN
B1: SULT1E1 (Homo sapiens, UniProt P49888); chain MNSELDYYEKFEEVHGILMYKDFVKYWDNVEAFQARPDDLVIATYPKSGTTWVSEIVYMIYKEGDVEKCKEDVIFNRIPFLECRKENLMNGVKQLDEMNSPRIVKTHLPPELLPASFWEKDCKIIYLCRNAKDVAVSFYYFFLMVAGHPNPGSFPEFVEKFMQGQVPYGSWYKHVKSWWEKGKSPRVLFLFYEDLKEDIRKEVIKLIHFLERKPSEELVDRIIHHTSFQEMKNNPSTNYTTLPDEIMNQKLSPFMRKGITGDWKNHFTVALNEKFDKHYEQQMKESTLKFRTEI
B2: SULT1A3 (Homo sapiens, UniProt P0DMM9); chain MELIQDTSRPPLEYVKGVPLIKYFAEALGPLQSFQARPDDLLINTYPKSGTTWVSQILDMIYQGGDLEKCNRAPIYVRVPFLEVNDPGEPSGLETLKDTPPPRLIKSHLPLALLPQTLLDQKVKVVYVARNPKDVAVSYYHFHRMEKAHPEPGTWDSFLEKFMAGEVSYGSWYQHVQEWWELSRTHPVLYLFYEDMKENPKREIQKILEFVGRSLPEETMDFMVQHTSFKEMKKNPMTNYTTVPQELMDHSISPFMRKGMAGDWKTTFTVAQNERFDADYAEKMAGCSLSFRSEL
P1: METTL9 full-length, 1-318 (Homo sapiens); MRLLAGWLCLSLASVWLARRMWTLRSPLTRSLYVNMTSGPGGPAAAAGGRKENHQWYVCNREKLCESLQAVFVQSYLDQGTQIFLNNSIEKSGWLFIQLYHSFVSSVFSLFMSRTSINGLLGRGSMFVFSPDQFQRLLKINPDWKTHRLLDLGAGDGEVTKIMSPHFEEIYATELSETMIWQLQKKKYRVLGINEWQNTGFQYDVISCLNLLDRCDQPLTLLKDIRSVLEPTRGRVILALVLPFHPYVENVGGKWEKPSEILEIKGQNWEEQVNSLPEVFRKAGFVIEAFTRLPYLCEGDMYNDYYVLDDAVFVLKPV; partner HTHESIWHG
UniProt Q00059, sequence (whole entry, unmodified, looked up): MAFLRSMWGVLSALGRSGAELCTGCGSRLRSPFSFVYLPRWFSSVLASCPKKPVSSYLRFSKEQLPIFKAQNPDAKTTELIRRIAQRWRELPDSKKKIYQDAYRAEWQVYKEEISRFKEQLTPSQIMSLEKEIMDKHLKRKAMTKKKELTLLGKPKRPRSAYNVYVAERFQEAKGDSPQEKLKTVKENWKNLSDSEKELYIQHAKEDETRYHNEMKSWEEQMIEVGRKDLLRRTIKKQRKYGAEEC
UniProt O95786, sequence (whole entry, looked up): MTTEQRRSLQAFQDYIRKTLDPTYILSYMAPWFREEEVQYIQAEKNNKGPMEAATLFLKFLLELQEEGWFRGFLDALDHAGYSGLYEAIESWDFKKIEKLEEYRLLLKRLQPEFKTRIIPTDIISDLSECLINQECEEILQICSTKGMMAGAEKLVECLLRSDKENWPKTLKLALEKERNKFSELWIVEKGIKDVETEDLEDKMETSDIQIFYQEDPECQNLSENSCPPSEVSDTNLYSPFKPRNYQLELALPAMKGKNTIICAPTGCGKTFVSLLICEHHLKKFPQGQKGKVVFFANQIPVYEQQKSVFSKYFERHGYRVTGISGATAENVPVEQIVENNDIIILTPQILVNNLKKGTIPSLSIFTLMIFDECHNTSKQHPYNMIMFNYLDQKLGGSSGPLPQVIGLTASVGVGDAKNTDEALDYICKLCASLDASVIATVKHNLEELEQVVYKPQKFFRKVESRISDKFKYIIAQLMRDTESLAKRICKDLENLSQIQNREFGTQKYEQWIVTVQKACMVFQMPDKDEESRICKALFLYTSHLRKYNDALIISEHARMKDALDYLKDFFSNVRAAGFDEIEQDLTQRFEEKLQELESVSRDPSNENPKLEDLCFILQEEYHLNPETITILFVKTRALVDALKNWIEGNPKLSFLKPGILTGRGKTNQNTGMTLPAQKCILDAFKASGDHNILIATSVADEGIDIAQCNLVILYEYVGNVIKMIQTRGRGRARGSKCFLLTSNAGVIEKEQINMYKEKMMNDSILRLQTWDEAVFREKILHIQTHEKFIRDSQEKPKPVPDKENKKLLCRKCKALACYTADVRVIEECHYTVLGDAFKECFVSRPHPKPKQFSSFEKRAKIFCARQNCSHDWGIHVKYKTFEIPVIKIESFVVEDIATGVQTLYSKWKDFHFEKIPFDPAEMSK
UniProt Q9Y5A9, sequence (whole entry, looked up): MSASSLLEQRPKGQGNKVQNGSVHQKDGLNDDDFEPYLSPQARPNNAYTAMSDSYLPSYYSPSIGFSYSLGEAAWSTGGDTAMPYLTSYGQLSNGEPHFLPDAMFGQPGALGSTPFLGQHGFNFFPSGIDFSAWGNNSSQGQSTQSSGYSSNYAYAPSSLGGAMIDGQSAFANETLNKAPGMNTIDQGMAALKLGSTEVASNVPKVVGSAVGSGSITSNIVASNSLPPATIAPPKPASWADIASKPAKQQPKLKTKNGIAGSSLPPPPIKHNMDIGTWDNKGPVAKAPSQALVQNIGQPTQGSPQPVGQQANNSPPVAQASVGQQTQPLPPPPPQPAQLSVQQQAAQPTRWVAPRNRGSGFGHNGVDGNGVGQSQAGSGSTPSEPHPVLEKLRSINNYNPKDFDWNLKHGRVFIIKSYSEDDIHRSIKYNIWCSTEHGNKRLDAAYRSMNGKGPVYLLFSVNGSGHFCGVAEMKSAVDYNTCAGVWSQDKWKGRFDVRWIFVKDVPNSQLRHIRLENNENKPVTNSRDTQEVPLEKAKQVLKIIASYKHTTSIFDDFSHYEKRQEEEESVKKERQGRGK
UniProt P35222, sequence (whole entry, looked up): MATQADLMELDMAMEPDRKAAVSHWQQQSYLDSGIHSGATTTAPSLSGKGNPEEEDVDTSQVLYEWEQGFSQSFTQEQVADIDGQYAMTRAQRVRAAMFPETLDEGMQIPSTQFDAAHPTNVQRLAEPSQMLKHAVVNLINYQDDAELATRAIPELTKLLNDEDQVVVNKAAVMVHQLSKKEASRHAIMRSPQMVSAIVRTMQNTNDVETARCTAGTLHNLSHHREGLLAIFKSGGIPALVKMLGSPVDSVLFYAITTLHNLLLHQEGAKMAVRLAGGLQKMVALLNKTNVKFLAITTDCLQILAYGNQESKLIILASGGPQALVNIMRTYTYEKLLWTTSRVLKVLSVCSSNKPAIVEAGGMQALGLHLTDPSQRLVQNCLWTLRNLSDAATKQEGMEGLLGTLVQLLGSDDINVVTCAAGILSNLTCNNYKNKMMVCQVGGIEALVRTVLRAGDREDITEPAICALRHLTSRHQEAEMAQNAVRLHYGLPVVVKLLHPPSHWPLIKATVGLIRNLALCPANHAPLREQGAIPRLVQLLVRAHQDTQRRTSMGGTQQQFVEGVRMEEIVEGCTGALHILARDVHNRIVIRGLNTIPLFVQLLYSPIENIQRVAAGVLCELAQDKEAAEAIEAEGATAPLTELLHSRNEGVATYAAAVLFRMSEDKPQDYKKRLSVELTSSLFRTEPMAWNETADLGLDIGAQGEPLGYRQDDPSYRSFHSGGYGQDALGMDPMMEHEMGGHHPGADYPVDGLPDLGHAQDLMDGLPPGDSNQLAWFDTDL
UniProt Q980N4, sequence (whole entry, looked up): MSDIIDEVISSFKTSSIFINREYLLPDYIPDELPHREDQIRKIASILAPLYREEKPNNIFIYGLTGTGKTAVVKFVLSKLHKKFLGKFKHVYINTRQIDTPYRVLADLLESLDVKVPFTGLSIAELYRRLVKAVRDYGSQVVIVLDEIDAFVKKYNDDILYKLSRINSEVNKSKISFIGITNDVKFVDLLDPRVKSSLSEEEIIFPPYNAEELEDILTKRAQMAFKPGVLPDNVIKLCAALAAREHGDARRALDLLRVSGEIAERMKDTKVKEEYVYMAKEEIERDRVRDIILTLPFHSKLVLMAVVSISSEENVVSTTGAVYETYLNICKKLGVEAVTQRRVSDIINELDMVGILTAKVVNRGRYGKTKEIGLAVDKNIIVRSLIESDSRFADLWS
UniProt P26212, sequence (whole entry, looked up): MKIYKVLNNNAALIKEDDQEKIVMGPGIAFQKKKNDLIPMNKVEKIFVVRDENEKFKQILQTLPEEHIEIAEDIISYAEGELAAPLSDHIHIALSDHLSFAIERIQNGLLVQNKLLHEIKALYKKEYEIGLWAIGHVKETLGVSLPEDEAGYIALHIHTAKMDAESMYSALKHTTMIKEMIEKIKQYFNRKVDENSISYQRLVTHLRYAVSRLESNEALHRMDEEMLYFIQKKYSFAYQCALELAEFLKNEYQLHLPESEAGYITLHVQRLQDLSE

The Kd of `ACACCGCTGCTAACCCCATACCCCG (dsDNA; 25 bp duplex)` is reported as 0.0079 ± 0.0008 µM (TFAM 43-221 del222-246 (Homo sapiens, UniProt Q00059); FRET; double-stranded DNA, one strand shown; apparent, cooperative Hill model).
`GGTGGGTTGTCACCGTTATTTCCCAACGCA (dsDNA)`: binding “binds” (Ovol1; EMSA; double-stranded DNA, one strand shown).
`TTGGTCGCTGCA (dsDNA)` — result for binding: “binds” (zim-2 450-570 (Caenorhabditis elegans, UniProt O18067); ITC; double-stranded DNA, one strand shown).
`GCAUGCGACCUUUCGAGGUCGCAUGC (hairpin RNA; 5'-OH, 11 bp, blunt)` — result for binding: “binds” (RIGI 2-925 (Homo sapiens, UniProt O95786); NMR; folded RNA; no nucleotide).
`TTCCTTCCTTTAATGTTTCAGATGAAATTAAGAGAGTGTCTCTTTTAAAAACGATAATAC (dsDNA)` — result for binding: “binds” (cdc6-1 full length assumed (Saccharolobus solfataricus, UniProt Q980N4); EMSA; double-stranded DNA, one strand shown).
Under binding, `TCCAATTGACAGGC (dsDNA)` is recorded as “no binding” (WRKY45-1; EMSA; double-stranded DNA, one strand shown).
Under binding, `TGATAGAATCTTCATCATGTTTCTTACACTTCTCA (dsDNA)` is recorded as “binds” (Heat shock factor protein HSF8; EMSA; double-stranded DNA, one strand shown).
`DNA 1 AGCGTGGGCGGGTTA / DNA 2 TAACCCGCCCACGC (dsDNA)` — result for binding: “binds” (WT1 ZF1-4, -KTS, 319-437 M342R (Homo sapiens); fluorescence polarization; double-stranded DNA).
For `TTACTTCACACTTTAATAAA (dsDNA)`, binding read “no binding” (bin; competition; double-stranded DNA, one strand shown; not purified).
`CUAUUAAUUUAAUUAUUUAAUAAUAUUUAUAUUAAACUCC (ssRNA)` — result for binding: “binds” (CTNNB1 full length assumed (Homo sapiens, UniProt P35222); EMSA; RNA).
With `MYO10 S1066A (Homo sapiens)` the relative binding was 0.44 (BTRC; co-IP; HEK293T; together with: MG132; baseline: unchanged protein, higher = more binding).
`CTGCCTTCATCAAAGCTTTGAACACAGCGC (dsDNA)` — result for binding: “no binding” (Ovol1; EMSA; double-stranded DNA, one strand shown).
For `TAACAGTCACCCCCCAACTAAC (dsDNA)`, binding read “binds” (TFAM residues 43-220 del221-246 (Homo sapiens, UniProt Q00059); EMSA; double-stranded DNA, one strand shown).
Under binding, `CTATTAAGCTTGACAAGAAG (dsDNA)` is recorded as “no binding” (Heat shock factor protein HSF8; EMSA; double-stranded DNA, one strand shown).
`GGGUAACCAUUAUAACCUCCAAUAAACAAGUUAACAACAC (ssRNA)`: binding “binds” (WDR33 full length assumed (Homo sapiens, UniProt Q9C0J8); UV cross-linking; RNA; within CPSF complex).
`TTCCGGGTTGTTTATTCAGATT (dsDNA)` — result for binding: “binds” (bin; EMSA; double-stranded DNA, one strand shown; not purified).
`DNA 1 GTCGACCAGCTGAGTCGACCAGCTG / DNA 2 CAGCTGGTCGAC / DNA 3 CAGCTGGTCGAC (dsDNA; nicked, N6-methyl-dA)` — result for binding: “binds” (YTHDF2 391-579 (Homo sapiens, UniProt Q9Y5A9); pull-down; double-stranded DNA).
`GGTGGGTTGTCAATGCGCTTTCCCAACGCA (dsDNA)`: binding “no binding” (Ovol1; EMSA; double-stranded DNA, one strand shown).
`GTGTTAGTTGGGGGGTGACTGTTAA (dsDNA; 25 bp duplex)` has a Kd of 0.0044 ± 0.0003 µM (TFAM 43-246 (Homo sapiens, UniProt Q00059); FRET; double-stranded DNA, one strand shown; apparent, cooperative Hill model).
For `TTAATGTTGTTTTGTTTCCGCCA (dsDNA)`, binding read “binds” (bin; EMSA; double-stranded DNA, one strand shown; not purified).
Under binding, `TTTTACTGACGGCG (dsDNA)` is recorded as “no binding” (WRKY45-1; EMSA; double-stranded DNA, one strand shown).
`CAGAATCTTGGAAGCATACAATGTGGAGACAA (ssDNA)`: binding “binds” (ZTA1 1-336 (Komagataella phaffii, UniProt F2QTB9); EMSA; single-stranded DNA).
The Vmax/Km of `B1 (SULT1E1)` is reported as 2540 µL/min/mg (O=C(O[C@@H]1Cc2c(O)cc(O)cc2O[C@@H]1c1cc(O)c(O)c(O)c1)c1cc(O)c(O)c(O)c1; steady-state kinetics; pH 7.4, not purified).
Under binding, `GGAUUGUGACUGGUAAAGCAGGCAAGACC (ssRNA (Bacillus subtilis); hairpin, two internal loops)` is recorded as “binds” (sacT 1-57 (Bacillus subtilis, UniProt P26212); EMSA; folded RNA).
For `B2 (SULT1A3)`, the Vmax/Km was 17000 µL/min/mg (O=C(O[C@@H]1Cc2c(O)cc(O)cc2O[C@@H]1c1cc(O)c(O)c(O)c1)c1cc(O)c(O)c(O)c1; steady-state kinetics; pH 7.4, not purified).
With `P1 M126A` the Kd was 616 µM (SLC39A7 residues 66-74; ITC; together with: SAH 2 mM).
`MYO10 S1060A (Homo sapiens)` gave a relative binding of 0.64 (BTRC; co-IP; HEK293T; together with: MG132; baseline: unchanged protein, higher = more binding).
`P1 D213S` gave a Kd of 32.4 µM (SLC39A7 residues 66-74; ITC; together with: SAH 2 mM).
`TTCCGGGTTGCCTATTCAGATT (dsDNA)` — result for binding: “no binding” (bin; competition; double-stranded DNA, one strand shown; not purified).

Repeated from above:
Under binding, `TGATAGAATCTTCATCATGTTTCTTACACTTCTCA (dsDNA)` is recorded as “binds” (Heat shock factor protein HSF8; EMSA; double-stranded DNA, one strand shown).
`DNA 1 AGCGTGGGCGGGTTA / DNA 2 TAACCCGCCCACGC (dsDNA)` — result for binding: “binds” (WT1 ZF1-4, -KTS, 319-437 M342R (Homo sapiens); fluorescence polarization; double-stranded DNA).
